Measurements gathered from unrelated publications.
Compare with care: the assays were run in different laboratories. Several values in a cell are separate wells, animals, samples, runs or records. ± gives the spread as reported.

SMILES | cell line | test | system | setting | scale | endpoint | result
O=C(Nc1ccc2[nH]nc(-c3ccncc3)c2c1)[C@@H]1CCN(CC(=O)N2CCN(c3ccc(-c4ncccn4)cc3)CC2)C1 | HCT116 | IncuCyte |  | concentration not given, 24 (unit not given) |  | PI-positive cells | 6 count and 6.5 count and 7.5 count
C[C@]12CC[C@H](O)C[C@H]1CC[C@@H]1[C@@H]2CC[C@]2(C)[C@@H](c3ccc(=O)oc3)CC[C@]12O | MCF7 | annexin V flow cytometry |  | 50 nM, 48 h |  | apoptotic cells | 29.4% and 33.2% and 24.5%
COc1cc(CCC[P+](c2ccccc2)(c2ccccc2)c2ccccc2)c(OC)c2c1OCO2.[I-] | A498 | SRB |  |  |  | LC50 | -4.78 log M
CC(c1ccccc1)(c1ccc(O)cc1)c1ccc(O)cc1 | HepG2 spheroids | Hoechst flow cytometry |  | 1 µM, 24 h |  | S phase cells | 9.53 ± 1.12%
C[C@]12CC[C@H](O)C[C@H]1CC[C@@H]1[C@@H]2CC[C@]2(C)[C@@H](C3=CC(=O)OC3)[C@@H](O)C[C@]12O | MYBPC3 mutant iPSC-derived cardiomyocytes | item: MyBP-C/MYH ratio |  | 24 h |  | EC50 | inactive
N.N.[Cl][Pt][Cl] | NCI-H82 | PI flow cytometry |  | 10 µM, 24 h |  | cells in G2 phase | 5%
COc1ccc([C@H]2c3[nH]c4ccc(Cl)cc4c3CCN2C(=O)Oc2ccc(Cl)cc2)cc1 | human dermal fibroblasts with PBMC | cytokine secretion, item: MCP-1 |  | 0.1 µM, 48 h |  | inhibition | 33%
COc1c(C)c2c(c(O)c1C/C=C(\C)CCC(=O)O)C(=O)OC2 | SNB-75 | cell proliferation | brain cancer |  |  | IC50 | 1660 nM
Cn1cc2cc(C(F)(F)c3nnc4ccc(-c5cnn(C6CC6)c5)nn34)c(F)cc2n1 | MKN-45 | PI flow cytometry |  | 20 nM, 24 h |  | cells in G1 phase | 66.8% and 60.1% and 64.2%
Cc1n[nH]c2ccc(-c3cncc(OC[C@@H](N)Cc4c[nH]c5ccccc45)c3)cc12 | SNU-1040 |  |  | 330 nM, 3 days, 100% DMSO | baseline: vehicle | cell growth | 78.6%
C=C1C(=O)O[C@H]2C[C@@]3(C)O[C@@H]3CC/C(C)=C/[C@@H](OC(C)=O)[C@H]12 | iPSC-derived cardiomyocytes | concentration-response curve, item: MyBP-C protein level |  |  |  | EC50 | 52.4 µM
CCN(CC)c1ccc(C=NNC(=O)CSc2nc3ccccc3c(=O)n2Cc2ccc(S(N)(=O)=O)cc2)c(O)c1 | SR | NCI five-dose screen |  |  |  | CC50 | > 100 µM
O=S(=O)(Nc1ccc(-c2nc3cc(NS(=O)(=O)c4cccc(C(F)(F)F)c4)ccc3o2)cc1)c1cccc(C(F)(F)F)c1 | DLD-1 colorectal cancer |  |  | 48 h |  | EC50 | 15 µM
CN1CCN(C2(CNC3CCN(c4cccc(-c5cc6cc(F)ccc6[nH]5)c4)CC3)CCC2)CC1 | SNB-75 |  |  |  |  | GI50 | 1490 nM
COc1c(CCC[P+](c2ccccc2)(c2ccccc2)c2ccccc2)cc2c(c1OC)OCO2.[I-] | IGROV-1 | SRB |  |  |  | LC50 | -4.09 log M
C[C@H]1CCC/C=C/[C@@H]2C[C@H](O)C[C@H]2[C@H](O)/C=C/C(=O)O1 | BT-12 | cell viability, MTT |  | 10 µM, 72 h |  | inhibition | 95.9%
CC(C)N1CCC(NC2CCN(c3cccc(-c4cc5cc(F)ccc5[nH]4)c3)CC2)CC1 | SNB-75 |  |  |  |  | CC50 | 5.51 µM
CC[C@H](C)[C@@H]([C@@H](CC(=O)N1CCC[C@H]1[C@H](OC)[C@@H](C)C(=O)N[C@@H](Cc1ccccc1)C(=O)O)OC)N(C)C(=O)[C@@H](NC(=O)[C@H](C(C)C)N(C)C(=O)CCSSC[C@H](NC(=O)[C@@H](NC(=O)CNC(=O)[C@H](CCC(=O)O)NC(=O)[C@H](CC(=O)O)NC(=O)[C@H](C)NC(=O)[C@H](CC(=O)O)NC(=O)[C@@H](NC(=O)[C@H](CC(C)C)NC(=O)[C@H](CC(C)C)NC(=O)[C@H](C)NC(=O)[C@H](CC(C)C)NC(=O)[C@H](CC(=O)O)NC(=O)[C@H](CC(C)C)NC(=O)[C@H](CC(C)C)NC(=O)[C@H](CC(C)C)NC(=O)[C@H](CC(C)C)NC(=O)[C@@H]1CCCN1C(=O)[C@@H](NC(=O)[C@@H](NC(=O)[C@H](Cc1ccccc1)NC(=O)[C@H](CC(C)C)NC(=O)[C@H](Cc1c[nH]c2ccccc12)NC(=O)[C@H](C)NC(=O)[C@H](CC(=O)O)NC(=O)[C@H](Cc1ccc(O)cc1)NC(=O)[C@H](CCC(N)=O)NC(=O)[C@H](C)NC(=O)[C@H](Cc1c[nH]c2ccccc12)NC(=O)[C@H](Cc1ccc(O)cc1)NC(=O)[C@@H](NC(=O)[C@@H]1CCCN1C(=O)[C@H](CC(N)=O)NC(=O)[C@H](CCC(N)=O)NC(=O)[C@H](CCC(=O)O)NC(=O)[C@H](C)NC(=O)[C@H](C)N)[C@@H](C)CC)[C@@H](C)O)[C@@H](C)O)C(C)C)[C@@H](C)O)C(=O)NCC(N)=O)C(C)C | HeLa | cell growth, MTT |  | 2 h | baseline: IC50 pH 7.4 over IC50 pH 5.0 | selectivity ratio | 16.4 fold

SMILES | cell line | test | system | setting | scale | endpoint | result
COc1ccc2c(c1)[nH]c1c(C)nccc12 | DU-145 | bisulfite pyrosequencing, item: RASSF1A promoter CpG site 10 |  | concentration not given | baseline: vehicle | methylation reduction | 3.44%
O=C1N(Cc2ccccc2Cl)c2ccccc2C12NN=C(c1ccccc1)S2 (stereo not drawn) | MDA-MB-468 | gene expression array, item: DDX1 mRNA |  | 10 µM, 12 h | baseline: untreated, down | fold change | 1.51
Cn1cncc1C1=CN(c2ncnc3[nH]cnc23)CCS1 | SK-OV-3 |  |  | ovarian cancer |  | CC50 | > 200 µM
Nc1ncc(-c2nc(N3CCOCC3)nc(N3CCOCC3)n2)c(C(F)F)n1 | 786-O | cell growth |  | 72 h |  | GI50 | 340 nM
Oc1ccc(C(c2ccc(O)cc2)(C(F)(F)F)C(F)(F)F)cc1 | HepG2 spheroids | Hoechst flow cytometry |  | 0.10 µM, 96 h |  | G2 phase cells | 20.5 ± 4.47%
COc1ccc(OC)c(N2C(=O)NC(=O)/C(=C\c3ccc([N+](=O)[O-])s3)C2=O)c1 | C127 LDR GFP reporter cells | silenced GFP reporter induction, activator, high-content imaging |  | retest, two-run mean |  | efficacy | 29%
C/C=C(/C)C(=O)O[C@H]1C(C)=C2[C@H]([C@@H]1OC(=O)CCCCCCC)[C@@](C)(OC(C)=O)C[C@H](OC(=O)CCC)[C@@]1(O)[C@H]2OC(=O)[C@@]1(C)O | HEK-293T | RNA-seq GSEA, item: Hallmark E2F targets |  | 500 nM, 6 h | direction not given | normalized enrichment score | -0.952
O=S(=O)(c1ccc(O)cc1)c1ccc(O)cc1 | HepG2 spheroids | planimetry |  | 2.5 µM, 0 to 24 h | baseline: mean area of 72 h spheroids | spheroid area increase | 181%
CC1=C(O)C(=O)C=C2C1=CC=C1[C@@]2(C)CC[C@@]2(C)[C@@H]3C[C@](C)(C(=O)O)CC[C@]3(C)CC[C@]12C | iPSC-derived cardiomyocytes | concentration-response curve, item: MyBP-C protein level |  | 24 h |  | EC50 | 6 µM
Nc1ncnc2c1ncn2[C@@H]1O[C@@H]2COP(=O)(O)O[C@H]3[C@@H](O)[C@H](n4cnc5c(=O)[nH]cnc54)O[C@@H]3COP(=O)(O)O[C@H]2[C@H]1O | HFF-1 | RNA sequencing, item: Axon guidance |  | downregulated pathway | baseline: Zika virus alone | pathway fold enrichment | 2.47
Cc1cnc2ccc3c(nc(N)n3C)c2n1 | BALB/c 3T3 | colony formation |  | 10 µM |  | plating efficiency | 45%
Cc1c(O)c(O)cc2c1CC=C1[C@@]2(C)CC[C@@]2(C)[C@@H]3C[C@](C)(C(=O)O)CC[C@]3(C)CC[C@]12C | iPSC-derived cardiomyocytes | concentration-response curve, item: MyBP-C protein level |  | 24 h |  | EC50 | 5.9 µM
CCNC(=O)[C@H]1O[C@@H](n2cnc3c(N)ncnc32)[C@H](O)[C@@H]1O | H9c2 | agonist |  | concentration not given, 5 min |  | ERK1/2 activation | 49 % above basal
Cc1sc2c(c1C)C(c1ccc(Cl)cc1)=N[C@@H](CC(=O)OC(C)(C)C)c1nnc(C)n1-2 | MM1.S | item: MYC |  | 3 µM, 6 h | baseline: untreated | protein level decrease | ~88%
Cc1nn(-c2nc3c(F)cc(F)cc3s2)c(O)c1C(c1ccc(C(F)(F)F)cc1)c1c(C)nn(-c2nc3c(F)cc(F)cc3s2)c1O | RAW-ISG | CCK-8 |  | 25 µM |  | viability | 92.7% and 89.6% and 92% and 103%
Oc1cc(Cl)ccc1Oc1ccc(Cl)cc1Cl | HepG2 | extracellular flux, item: oxygen consumption rate |  | 1 h, distribution mode 1 |  | point of departure | 1.38 µM
CC(=O)O[C@H]1CC[C@@]2(C)[C@H](CC[C@@H]3[C@@H]2CC[C@]2(C)[C@@H](C4=CC(=O)OC4)[C@@H](OC(C)=O)C[C@]32O)C1 | iPSC-derived cardiomyocytes | concentration-response curve, item: MyBP-C protein level |  | 24 h |  | EC50 | 4.7 µM
CC(C)[C@H](N)C(=O)N1CCC[C@H]1B(O)O | Ker-CT keratinocytes, NLRP1 knockout | inducer, ELISA |  | concentration not given, compound alone |  | IL-1beta release | 6.71 pg/mL and 0.479 pg/mL and 0 pg/mL

A few entries again:
SMILES | cell line | test | system | setting | scale | endpoint | result
Cc1c(O)c(O)cc2c1CC=C1[C@@]2(C)CC[C@@]2(C)[C@@H]3C[C@](C)(C(=O)O)CC[C@]3(C)CC[C@]12C | iPSC-derived cardiomyocytes | concentration-response curve, item: MyBP-C protein level |  | 24 h |  | EC50 | 5.9 µM
CC1=C(O)C(=O)C=C2C1=CC=C1[C@@]2(C)CC[C@@]2(C)[C@@H]3C[C@](C)(C(=O)O)CC[C@]3(C)CC[C@]12C | iPSC-derived cardiomyocytes | concentration-response curve, item: MyBP-C protein level |  | 24 h |  | EC50 | 6 µM
